Results of several laboratories.
Protocols differ between the studies behind these lines. Numbers after ± are the reported error.
Sequence of UniProt Q9UNQ0 (whole entry, looked up): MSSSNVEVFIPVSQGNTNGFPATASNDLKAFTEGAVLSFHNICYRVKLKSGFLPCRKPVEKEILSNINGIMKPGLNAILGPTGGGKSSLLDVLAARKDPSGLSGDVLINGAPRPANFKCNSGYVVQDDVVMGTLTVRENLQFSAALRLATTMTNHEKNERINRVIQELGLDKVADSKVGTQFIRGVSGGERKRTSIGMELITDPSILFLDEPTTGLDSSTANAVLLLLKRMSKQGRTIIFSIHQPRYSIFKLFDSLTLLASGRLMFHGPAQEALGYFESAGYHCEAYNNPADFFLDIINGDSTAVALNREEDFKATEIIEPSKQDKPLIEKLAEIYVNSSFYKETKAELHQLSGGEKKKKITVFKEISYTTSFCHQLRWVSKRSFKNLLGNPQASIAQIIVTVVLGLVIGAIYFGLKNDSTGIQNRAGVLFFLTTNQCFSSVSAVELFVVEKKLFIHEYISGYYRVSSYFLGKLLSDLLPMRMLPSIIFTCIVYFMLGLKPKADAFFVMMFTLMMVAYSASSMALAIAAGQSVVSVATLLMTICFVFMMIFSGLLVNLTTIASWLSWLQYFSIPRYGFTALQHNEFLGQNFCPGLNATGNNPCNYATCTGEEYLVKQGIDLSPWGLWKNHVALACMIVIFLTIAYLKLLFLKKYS
Sequence of UniProt P61073 (whole entry, looked up): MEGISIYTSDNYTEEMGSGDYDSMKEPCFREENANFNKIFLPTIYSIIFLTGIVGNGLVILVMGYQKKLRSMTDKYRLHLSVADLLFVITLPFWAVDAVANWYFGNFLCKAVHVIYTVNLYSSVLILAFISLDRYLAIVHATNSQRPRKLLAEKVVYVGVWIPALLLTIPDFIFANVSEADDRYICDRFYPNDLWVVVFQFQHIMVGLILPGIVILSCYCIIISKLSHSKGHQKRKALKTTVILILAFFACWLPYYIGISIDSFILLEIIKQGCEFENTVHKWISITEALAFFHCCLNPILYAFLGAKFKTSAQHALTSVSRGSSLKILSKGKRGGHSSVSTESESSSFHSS
Sequence of UniProt P0A725 (whole entry, looked up): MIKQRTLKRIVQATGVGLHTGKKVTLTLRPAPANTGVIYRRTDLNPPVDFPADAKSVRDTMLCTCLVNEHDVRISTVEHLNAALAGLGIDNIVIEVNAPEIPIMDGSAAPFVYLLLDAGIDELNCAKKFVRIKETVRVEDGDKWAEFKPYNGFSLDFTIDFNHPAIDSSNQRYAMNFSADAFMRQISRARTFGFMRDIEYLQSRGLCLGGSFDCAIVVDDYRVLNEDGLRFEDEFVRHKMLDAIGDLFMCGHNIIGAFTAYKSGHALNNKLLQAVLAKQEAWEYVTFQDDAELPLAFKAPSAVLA

CCN(CC)Cc1cc(Nc2c(C)cnc3cc(Cl)ccc23)ccc1O  CC50 (Vero WNV replicon cells; 24 h): 66.4 ± 4.64 µM
CN[C@](C)(C[18F])C(=O)O  tracer uptake (MDA-MB-468 tumour model; host not given, muscle; 2 h, tumour-bearing): 1.3 %ID/g
CN(C)CC1CCCCC1(O)c1cccc(O)c1 (stereo not drawn)  Papp A to B (P-glycoprotein; Caco-2 TC7; 1 µM, 3 h, pH 7.4, together with: elacridar 4 µM): 13.5 ± 1.3 ×10⁻⁶ cm/s
Nc1nc2c([C@@H]3O[C@@H]4COP(=O)(O)O[C@H]5[C@@H](O)[C@H](c6scc7c(=O)[nH]c(N)nc67)O[C@@H]5COP(=O)(O)O[C@H]4[C@H]3O)scc2c(=O)[nH]1  emission maximum (water): 457 nm
COc1ccc(CNc2nc(N3CCC[C@H]3CO)ncc2C(=O)NNC(=O)c2cnc(N3CCC[C@H]3CO)nc2NCc2ccc(OC)c(Cl)c2)cc1Cl  revertant count (Salmonella typhimurium; TA102; 62.5 µg/plate, together with: rat liver S9): 273 ± 2
Cc1nc([C@H](NC(=O)c2ccc(-c3ccc(Cl)cc3)[nH]2)[C@@H]2CCCCN2)sc1CO  CC50 (TZM-bl; cell growth or viability, XTT): ~24 µM
CN1C(=O)[C@@H](Cc2ccc(O)cc2)NC(=O)CNC(=O)[C@H](Cc2ccc3ccccc3c2)NC(=O)[C@H](CCCNC(=N)N)NC(=O)[C@H]1CCCNC(=O)c1ccc(CNC(=O)CN2CCN(CC(=O)O)CCN(CC(=O)O)CCN(CC(=O)O)CC2)cc1 [gallium-68 labelled]  SUVmean (CXCR4 (Homo sapiens, UniProt P61073); PET; human, NSCLC lesion): 2.7
COc1cc(C(=O)NCCOCCOCCOCCNC(=O)c2ccc([18F])nc2)ccc1NC(=O)C1NC(CC(C)(C)C)C(C#N)(c2ccc(Cl)cc2F)C1c1cccc(Cl)c1F (stereo not drawn)  tracer uptake (SJSA-1 tumour model; host not given, tumour; 1 h, tumour-bearing): 1.32 %ID/g
O=C(N=P12CN3CN(CN(C3)C1)C2)c1ccccn1.[Cl][Pd][Cl]  stability time (NMR; DMSO:water 50:50): > 4 days
O=C1c2ccccc2-c2c1c1c(O)cccc1n2Cc1ccccc1  inhibition (ABCG2 (Homo sapiens, UniProt Q9UNQ0); mitoxantrone efflux, inhibitor, flow cytometry; HEK293 transfected with ABCG2; 10 µM, 30 min, together with: mitoxantrone 5 µM; baseline: Ko143 1 µM): 68%
CN1CCN(C(=O)N[C@@H](Cc2ccccc2)C(=O)N[C@H](/C=C/S(=O)(=O)c2ccccc2)CCc2ccccc2)CC1  CC50 (African green monkey cells; cytotoxicity): > 100 µM
Oc1ccc(Nc2ccnc3cc(Cl)ccc23)cc1  CC50 (Vero WNV replicon cells; 24 h): > 100 µM
O=C(O)CCC(NP(=O)(O)OCCC[C@@H](NC(=O)CCC(NC(=O)c1ccc([18F])cc1)C(=O)O)C(=O)O)C(=O)O (stereo partly drawn)  tracer uptake (CWR22Rv1 tumour model; host not given, spleen; intravenous, 1 h, tumour-bearing): 1.18 %ID/g
CCCCCc1cc(OC(=O)C(NC(=O)CCC(=O)O)C(C)C)c2c(c1)OC(C)(C)C1CCC(C)=CC21 (stereo not drawn)  Papp (isolated rabbit cornea; 3 h, pH 7.4, 34 °C, donor 0.05% tyloxapol): 3.11 ± 0.4 ×10⁻⁶ cm/s
CCC(=O)N(C)c1ccc(Cl)c(Cl)c1  revertants (Escherichia coli; Ames test; WP2 uvrA; 0.50 mg/plate, without S9 activation): 41 ± 8.1 revertants/plate
Nc1nc2c([C@@H]3O[C@@H]4COP(=O)(O)O[C@H]5[C@@H](O)[C@H](n6cnc7c(=O)[nH]c(N)nc76)O[C@@H]5COP(=O)(O)O[C@H]4[C@H]3O)snc2c(=O)[nH]1  emission maximum (water): 456 nm
C[C@@](O)(C(F)F)[C@H](NC(=O)c1ccc(C#CC#CC2CC2)cc1)C(=O)NO  buffer-to-plasma concentration ratio (UDP-3-O-acyl-N-acetylglucosamine deacetylase (Escherichia coli K-12, UniProt P0A725); target binding in plasma, rapid equilibrium dialysis; mouse plasma; 10 µM, together with: LpxC 1 µM in buffer): 0.1 ± 0.03
COc1ccc(CNc2nc(N3CCC[C@H]3CO)ncc2C(=O)NN)cc1Cl  revertant count (Salmonella typhimurium; TA98; 125 µg/plate, 48 h): 39 ± 4
C[C@H]1CC[C@H](NC(=S)NNC(=O)c2ccccn2)CC1  CC50 (African green monkey cells; cell viability; 24 (unit not given)): 18.8 µM
Nc1nc2c([C@@H]3O[C@@H]4COP(=O)(O)O[C@H]5[C@@H](O)[C@H](n6cnc7c(=O)[nH]c(N)nc76)O[C@@H]5COP(=O)(O)O[C@H]4[C@H]3O)scc2c(=O)[nH]1  emission maximum (water): 458 nm
O=C(O)CCC(NP(=O)(O)OCCC[C@@H](NC(=O)CCC(NC(=O)CCCCCNC(=O)CCCCCNC(=O)c1ccc([18F])cc1)C(=O)O)C(=O)O)C(=O)O (stereo partly drawn)  tracer uptake (CWR22Rv1 tumour model; host not given, heart; intravenous, 1 h, tumour-bearing): 0.23 %ID/g

For quick reference, copied from above:
Oc1ccc(Nc2ccnc3cc(Cl)ccc23)cc1  CC50 (Vero WNV replicon cells; 24 h): > 100 µM
